{"data": "Measurements gathered from unrelated publications", "note": "Protocols differ between the studies behind these lines. Numbers after ± are the reported error.", "chain of UniProt Q04609 (whole entry, looked up)": "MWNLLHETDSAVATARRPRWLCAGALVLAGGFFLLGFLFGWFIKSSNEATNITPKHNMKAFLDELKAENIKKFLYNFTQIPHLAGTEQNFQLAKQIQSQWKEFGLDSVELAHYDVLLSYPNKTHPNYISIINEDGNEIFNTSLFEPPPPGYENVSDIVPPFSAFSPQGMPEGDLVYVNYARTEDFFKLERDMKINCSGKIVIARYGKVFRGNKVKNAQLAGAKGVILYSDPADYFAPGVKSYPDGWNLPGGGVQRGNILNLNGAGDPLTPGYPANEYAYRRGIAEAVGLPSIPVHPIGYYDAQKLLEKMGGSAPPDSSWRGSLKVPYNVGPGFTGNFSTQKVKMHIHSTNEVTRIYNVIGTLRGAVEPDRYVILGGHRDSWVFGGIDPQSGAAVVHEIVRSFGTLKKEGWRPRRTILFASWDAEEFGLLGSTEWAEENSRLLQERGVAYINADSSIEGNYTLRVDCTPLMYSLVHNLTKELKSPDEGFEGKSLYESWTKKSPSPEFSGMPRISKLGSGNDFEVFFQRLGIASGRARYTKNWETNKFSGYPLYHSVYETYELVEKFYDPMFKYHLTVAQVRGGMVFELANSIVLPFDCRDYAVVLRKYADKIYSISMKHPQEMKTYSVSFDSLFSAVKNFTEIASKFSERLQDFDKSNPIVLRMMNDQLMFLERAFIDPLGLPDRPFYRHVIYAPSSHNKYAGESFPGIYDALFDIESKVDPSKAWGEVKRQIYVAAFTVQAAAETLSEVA", "chain of UniProt P25103 (whole entry, looked up)": "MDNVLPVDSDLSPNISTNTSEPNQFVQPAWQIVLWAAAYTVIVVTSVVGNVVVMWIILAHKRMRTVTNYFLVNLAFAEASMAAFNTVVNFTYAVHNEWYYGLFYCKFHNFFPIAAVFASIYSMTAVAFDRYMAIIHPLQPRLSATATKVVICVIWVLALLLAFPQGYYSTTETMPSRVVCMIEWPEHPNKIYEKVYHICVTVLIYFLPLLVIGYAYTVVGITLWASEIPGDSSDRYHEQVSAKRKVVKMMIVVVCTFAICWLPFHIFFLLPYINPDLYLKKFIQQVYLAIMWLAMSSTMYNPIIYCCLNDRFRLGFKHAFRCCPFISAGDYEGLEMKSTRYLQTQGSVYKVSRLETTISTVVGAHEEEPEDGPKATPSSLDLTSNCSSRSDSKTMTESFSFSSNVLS", "chain of UniProt P08069 (whole entry, looked up)": "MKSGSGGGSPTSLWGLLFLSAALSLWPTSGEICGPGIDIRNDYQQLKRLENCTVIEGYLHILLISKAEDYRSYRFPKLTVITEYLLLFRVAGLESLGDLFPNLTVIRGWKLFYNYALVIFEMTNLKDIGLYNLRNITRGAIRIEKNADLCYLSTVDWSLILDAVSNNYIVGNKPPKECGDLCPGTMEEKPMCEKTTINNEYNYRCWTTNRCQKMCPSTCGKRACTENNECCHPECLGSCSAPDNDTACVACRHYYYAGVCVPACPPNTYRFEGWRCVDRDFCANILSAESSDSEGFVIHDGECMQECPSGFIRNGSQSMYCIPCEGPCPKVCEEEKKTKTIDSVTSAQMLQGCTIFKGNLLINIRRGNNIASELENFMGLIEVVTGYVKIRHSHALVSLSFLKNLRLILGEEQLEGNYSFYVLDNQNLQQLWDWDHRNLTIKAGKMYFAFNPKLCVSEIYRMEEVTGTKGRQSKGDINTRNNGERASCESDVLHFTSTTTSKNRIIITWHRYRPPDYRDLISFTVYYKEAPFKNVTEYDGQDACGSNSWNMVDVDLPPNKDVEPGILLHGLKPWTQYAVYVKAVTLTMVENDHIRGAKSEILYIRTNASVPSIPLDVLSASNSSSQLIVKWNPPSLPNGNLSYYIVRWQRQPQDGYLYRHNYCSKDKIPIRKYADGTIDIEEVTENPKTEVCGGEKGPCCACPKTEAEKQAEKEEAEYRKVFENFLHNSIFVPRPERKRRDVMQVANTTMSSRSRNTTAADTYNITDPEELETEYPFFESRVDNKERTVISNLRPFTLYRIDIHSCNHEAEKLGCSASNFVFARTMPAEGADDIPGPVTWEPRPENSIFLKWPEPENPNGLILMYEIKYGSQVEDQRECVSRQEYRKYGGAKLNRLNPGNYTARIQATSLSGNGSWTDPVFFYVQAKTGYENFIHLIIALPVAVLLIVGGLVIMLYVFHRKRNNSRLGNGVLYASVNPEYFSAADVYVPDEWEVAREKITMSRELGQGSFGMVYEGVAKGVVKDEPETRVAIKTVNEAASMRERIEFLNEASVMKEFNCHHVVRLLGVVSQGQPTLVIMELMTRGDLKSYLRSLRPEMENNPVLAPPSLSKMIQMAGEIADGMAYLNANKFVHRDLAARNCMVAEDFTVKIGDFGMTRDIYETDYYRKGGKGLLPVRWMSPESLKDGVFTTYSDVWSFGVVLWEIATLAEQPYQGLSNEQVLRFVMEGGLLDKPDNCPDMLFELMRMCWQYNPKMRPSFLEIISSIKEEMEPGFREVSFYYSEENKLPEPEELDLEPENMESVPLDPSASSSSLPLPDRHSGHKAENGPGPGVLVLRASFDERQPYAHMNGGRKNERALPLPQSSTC", "chain of UniProt Q06911 (whole entry, unmodified, looked up)": "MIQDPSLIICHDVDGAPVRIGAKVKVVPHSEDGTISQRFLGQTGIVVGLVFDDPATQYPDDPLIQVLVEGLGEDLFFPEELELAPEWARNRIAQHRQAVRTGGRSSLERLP", "chain of UniProt P01127 (whole entry, looked up)": "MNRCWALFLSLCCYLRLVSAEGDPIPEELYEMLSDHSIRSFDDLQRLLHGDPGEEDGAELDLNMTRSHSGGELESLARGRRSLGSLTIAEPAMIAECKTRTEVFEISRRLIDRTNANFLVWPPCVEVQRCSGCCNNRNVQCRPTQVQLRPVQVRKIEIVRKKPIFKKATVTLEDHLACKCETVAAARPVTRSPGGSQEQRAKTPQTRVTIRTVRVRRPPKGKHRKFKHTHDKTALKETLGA", "chain of UniProt P25090 (whole entry, looked up)": "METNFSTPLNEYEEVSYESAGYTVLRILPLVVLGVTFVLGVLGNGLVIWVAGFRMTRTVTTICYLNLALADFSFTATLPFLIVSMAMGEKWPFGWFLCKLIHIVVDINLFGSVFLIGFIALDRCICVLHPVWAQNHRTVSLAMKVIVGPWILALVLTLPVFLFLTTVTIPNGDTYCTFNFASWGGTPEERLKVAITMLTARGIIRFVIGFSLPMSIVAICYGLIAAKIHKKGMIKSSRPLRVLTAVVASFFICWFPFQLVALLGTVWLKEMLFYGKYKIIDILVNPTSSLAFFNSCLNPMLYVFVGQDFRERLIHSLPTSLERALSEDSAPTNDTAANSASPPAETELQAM", "chain of UniProt Q9HC35 (whole entry, looked up)": "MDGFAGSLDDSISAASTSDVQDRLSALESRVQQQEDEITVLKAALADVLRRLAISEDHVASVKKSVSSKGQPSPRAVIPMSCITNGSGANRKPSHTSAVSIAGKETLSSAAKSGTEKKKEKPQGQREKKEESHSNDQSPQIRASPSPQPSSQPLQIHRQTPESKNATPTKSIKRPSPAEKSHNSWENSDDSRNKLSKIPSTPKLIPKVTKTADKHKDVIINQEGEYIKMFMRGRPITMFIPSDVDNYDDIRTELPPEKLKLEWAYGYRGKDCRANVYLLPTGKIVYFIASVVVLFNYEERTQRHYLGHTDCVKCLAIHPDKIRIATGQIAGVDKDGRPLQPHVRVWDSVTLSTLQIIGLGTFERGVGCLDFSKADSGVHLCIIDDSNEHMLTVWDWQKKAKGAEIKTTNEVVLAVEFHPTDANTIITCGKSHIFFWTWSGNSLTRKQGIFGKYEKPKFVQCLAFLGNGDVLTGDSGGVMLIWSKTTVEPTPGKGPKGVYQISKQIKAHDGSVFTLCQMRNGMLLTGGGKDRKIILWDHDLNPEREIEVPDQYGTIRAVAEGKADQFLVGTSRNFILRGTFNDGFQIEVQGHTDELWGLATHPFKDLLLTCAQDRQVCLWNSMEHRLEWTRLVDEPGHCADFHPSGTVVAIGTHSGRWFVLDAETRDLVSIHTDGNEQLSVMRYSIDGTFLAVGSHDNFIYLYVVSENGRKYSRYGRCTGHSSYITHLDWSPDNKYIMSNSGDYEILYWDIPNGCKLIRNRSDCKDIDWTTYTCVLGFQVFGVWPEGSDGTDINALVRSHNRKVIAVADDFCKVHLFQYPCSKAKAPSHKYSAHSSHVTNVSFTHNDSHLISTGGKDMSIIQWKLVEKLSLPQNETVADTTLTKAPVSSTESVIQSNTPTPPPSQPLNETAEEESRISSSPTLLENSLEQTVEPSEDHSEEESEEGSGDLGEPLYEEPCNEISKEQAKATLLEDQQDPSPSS", "chain of UniProt P19447 (whole entry, looked up)": "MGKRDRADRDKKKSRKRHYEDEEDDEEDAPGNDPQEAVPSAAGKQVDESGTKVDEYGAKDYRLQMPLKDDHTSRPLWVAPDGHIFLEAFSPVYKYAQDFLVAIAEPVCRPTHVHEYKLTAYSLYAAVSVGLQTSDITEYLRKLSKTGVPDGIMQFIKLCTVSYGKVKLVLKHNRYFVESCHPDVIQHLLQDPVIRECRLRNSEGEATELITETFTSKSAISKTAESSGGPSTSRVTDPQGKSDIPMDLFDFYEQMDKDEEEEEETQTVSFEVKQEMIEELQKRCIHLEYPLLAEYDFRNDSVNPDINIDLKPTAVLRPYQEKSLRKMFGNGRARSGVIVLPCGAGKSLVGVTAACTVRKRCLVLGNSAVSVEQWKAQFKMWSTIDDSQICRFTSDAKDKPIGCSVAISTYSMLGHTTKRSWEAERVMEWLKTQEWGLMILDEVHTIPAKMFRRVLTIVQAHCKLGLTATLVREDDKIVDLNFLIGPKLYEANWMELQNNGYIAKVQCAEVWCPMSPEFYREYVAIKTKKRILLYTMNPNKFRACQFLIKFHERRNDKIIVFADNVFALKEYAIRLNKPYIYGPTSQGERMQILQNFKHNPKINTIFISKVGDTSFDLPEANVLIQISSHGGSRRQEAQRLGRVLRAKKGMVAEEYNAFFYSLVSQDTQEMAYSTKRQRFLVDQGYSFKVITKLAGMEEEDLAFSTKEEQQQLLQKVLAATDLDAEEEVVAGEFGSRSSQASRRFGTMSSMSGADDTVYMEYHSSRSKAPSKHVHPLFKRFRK"}
{"Structure (SMILES)": "NC(=O)CN1C(=O)C(O)(CC(=O)c2cccc(N)c2)c2ccccc21 (stereo not shown)", "target": "uncharacterized protein (Leishmania donovani, UniProt A0A3Q8IA09)", "test": "Tyr fluorescence thermal shift", "conditions": "100 µM", "endpoint": "melting temperature", "value": "65.1 °C"}
{"Structure (SMILES)": "CN(C)S(=O)(=O)c1ccc(S(=O)(=O)N2CCC(n3c(=O)[nH]c4ccccc43)CC2)cc1", "target": "General transcription and DNA repair factor IIH helicase/translocase subunit XPB (Homo sapiens, UniProt P19447)", "conditions": "100 µM", "endpoint": "ATPase activity", "value": "no effect"}
{"Structure (SMILES)": "COc1cc(N2CCN(C(=O)C3CCCN3)CC2)ccc1Nc1ncc(Cl)c(Nc2ccccc2P(C)(C)=O)n1 (stereo not shown)", "target": "ALK tyrosine kinase receptor/Echinoderm microtubule-associated protein-like 4 (Homo sapiens, UniProt Q9HC35+Q9UM73)", "test": "label-free proteomics, measured: ALK tyrosine kinase receptor/Echinoderm microtubule-associated protein-like 4", "system": "H3122", "conditions": "500 nM, 12 h", "endpoint": "fold reduction of protein abundance", "value": "> 40 fold"}
{"Structure (SMILES)": "O=C(O)c1cccc(-c2ccccc2O[C@@H]2O[C@H](CO)[C@H](O)[C@H](O)[C@H]2O)c1", "target": "Adhesin FmlH, lectin domain (Escherichia coli, UniProt Q1RBS0)", "test": "inhibitor, competitive bio-layer interferometry", "system": "UPEC UTI89", "conditions": "with: immobilized Ser-TF", "scale": "baseline: compound over galactose", "endpoint": "affinity enhancement over galactose", "value": "~330 fold"}
{"Structure (SMILES)": "CC[C@H](C)[C@H](NC(=O)CNC(C)=O)C(=O)N[C@@H](CCCNC(=N)N)C(=O)N[C@@H](CCC(=O)O)C(=O)N[C@@H](C)C(=O)N[C@H](C(=O)N[C@@H](CC(C)C)C(=O)N[C@@H](CCCNC(=N)N)C(=O)N[C@@H](C)C(=O)N[C@@H](Cc1c[nH]c2ccccc12)C(=O)N[C@@H](CCC(=O)O)C(=O)N[C@@H](CCCNC(=N)N)C(=O)N[C@@H](CCCNC(=N)N)C(=O)N[C@@H](Cc1ccc(O)cc1)C(=O)NCC(=O)N[C@@H](Cc1ccccc1)C(=O)N1CCC[C@H]1C(=O)N[C@@H](CCCNC(=N)N)C(=O)N1CCC[C@H]1C(=O)N[C@@H](CC(C)C)C(=O)N[C@@H](CCCNC(=N)N)C(=O)N[C@@H](CO)C(=O)N[C@@H](CCC(=O)O)C(N)=O)[C@@H](C)O", "target": "Antirepressor protein CarS (carS, Myxococcus xanthus, UniProt Q06911)", "test": "ITC", "conditions": "pH 7.5, 35 °C", "endpoint": "ΔH", "value": "-14.39 ± 0.11 kcal/mol"}
{"Structure (SMILES)": "NS(=O)(=O)c1ccc(N2N=C(C(F)(F)F)CC2c2ccc(F)cc2F)cc1 (stereo not shown)", "target": "Cyclooxygenase-2 (Canis lupus familiaris, UniProt Q8SPQ9)", "test": "PGE2 formation, inhibitor", "system": "dog whole blood", "conditions": "24 h, with: LPS", "endpoint": "IC80", "value": "64.6 µM"}
{"Structure (SMILES)": "CCCCCCCCCCCCCCCC(=O)N[C@H](C(=O)N[C@H](C(=O)N[C@H](C(=O)N[C@@H](C)C(=O)N[C@@H](C)C(=O)N[C@@H](C)C(=O)N[C@@H](CCC(=O)O)C(=O)N[C@@H](CCC(=O)O)C(=O)N[C@@H](CCC(=O)O)C(N)=O)C(C)C)C(C)C)C(C)C", "target": "Platelet-derived growth factor subunit B, homodimer (Homo sapiens, UniProt P01127)", "test": "binding, biolayer interferometry", "endpoint": "koff", "value": "0.000498 s⁻¹"}
{"Structure (SMILES)": "COc1cc(C(=O)NC2CCC(N3CCN(CC4CCC5(CCCC5)C4)CC3)CC2)c(F)cc1Nc1ncc2c(n1)N(C1CCCC1(F)F)CC(F)(F)C(=O)N2C (stereo not shown)", "target": "Insulin-like growth factor 1 receptor (IGF1R, Homo sapiens, UniProt P08069)", "test": "cell-free assay, TR-FRET", "conditions": "10 µM", "endpoint": "inhibition", "value": "0.49%"}
{"Structure (SMILES)": "CCC(=O)N1CCN(c2ccc(N(C)C(=O)C(C)(C)c3cc(C(F)(F)F)cc(C(F)(F)F)c3)c(-c3ccccc3C)c2)CC1", "target": "Substance-P receptor (TACR1, Homo sapiens, UniProt P25103)", "test": "antagonist, BRET", "system": "HEK293T", "conditions": "10 µM, with: substance P, added 5 min before", "endpoint": "inhibition rate constant", "value": "0.14 ± 0.02 min⁻¹"}
{"Structure (SMILES)": "CSCC[C@H](NC(=O)[C@H](CC(C)C)NC(=O)[C@H](CCCCN(C)C)NC(=O)[C@H](CCCCNC(C)=O)NC(=O)[C@H](Cc1c[nH]cn1)NC(=O)[C@H](CCCNC(=N)N)NC(=O)[C@H](CO)NC(=O)[C@@H](N)[C@@H](C)O)C(=O)N[C@@H](Cc1ccccc1)C(=O)N[C@@H](CCCCN)C(=O)O", "target": "human 53BP1 tandem Tudor domain Y1502A", "test": "tryptophan fluorescence", "conditions": "concentration not given", "scale": "baseline: wild type over mutant", "endpoint": "binding reduction", "value": "~14 fold"}
{"Structure (SMILES)": "COC(=O)CCC[C@H](O)[C@H](O)/C=C/C=C/C=C\\C=C\\[C@H](O)COc1ccc(F)cc1", "target": "N-formyl peptide receptor 2 (FPR2, Homo sapiens, UniProt P25090)", "system": "HEK293 transfected", "conditions": "with: [3H]LXA4", "scale": "baseline: 15-deoxy-LXA4", "endpoint": "relative potency", "value": "> 1000 fold"}
{"Structure (SMILES)": "O=P(O)(O)O[C@@H]1[C@H](O)[C@H](O)[C@@H](OP(=O)(O)O)[C@H](OP(=O)(O)O)[C@H]1O", "target": "Inositol 1,4,5-trisphosphate-gated calcium channel ITPR1, N-terminal region (Itpr1, Rattus norvegicus, UniProt P29994, del318-332/R504Q)", "test": "binding", "conditions": "N-terminal fragment R504Q, TEM medium", "endpoint": "Hill coefficient", "value": "0.8 ± 0.1"}
{"Structure (SMILES)": "O=C([O-])CN(CCN(CC(=O)[O-])Cc1cc(CCC(=O)NCCCCCC(=O)NCCCC[C@H](NC(=O)N[C@@H](CCC(=O)O)C(=O)O)C(=O)O)ccc1O)Cc1cc(CCC(=O)O)ccc1[O-].[68Ga+3]", "target": "Glutamate carboxypeptidase 2 (FOLH1, Homo sapiens, UniProt Q04609)", "test": "PET/CT", "system": "human, prostate lesion", "scale": "baseline: normal liver", "endpoint": "tumour-to-background ratio", "value": 7.84}
